# Measured values gathered from unrelated publications.
# Numbered parts are unrelated; each lists some results of a single study.

# Study 1
# Target: Interferon regulatory factor 5, full length, phosphomimetic (IRF5, Homo sapiens, UniProt Q13568-2, residues 1-514, K96S/S451D/S453D/S456D/S462D)
# Method: protein-binding microarray
# Molecule type: double-stranded DNA, one strand shown
# Sample: in vitro
# Concentration: 250 nM
# Notes: 60-bp whole probe
# Added: salmon DNA 0.4 mg/ml
# Baseline: random background probes
# Reading: higher = stronger binding
# Constant ends, left off below: GCCTAGCAC … GTCTTGATTCGCTTGACGCTGCTG
Strand,log fluorescence [z-score]
ACTAGTTTTCATTTTCTGAAGTGCTAG,3.33
TTGCGTCTGGGTGTTTTCTAGTGCTAG,0.97
AGAGAGAGAGAGAGAGAGAGGTGCTAG,0.129
TTGGGTTCCCTTTTCCTTTAGTGCTAG,0.324
TAGAGTCTCAACCCCCAATAAGTGCTA,-0.015
TTAGGACTGGGTCCCGGTTAGTGCTAG,-0.523
TTAGGTATCGGGTATCGGTTAGTGCTA,6.59
TCATTTTTTTTCATCATACTGTGCTAG,1.82

# Study 2
# Cell line: HEK-293T
# Observed: pseudovirus infection
# Method: FDA-approved drug library screen
# Organism: VSV pseudotyped with SARS-CoV-2 spike
# Concentration: 10 µM
# Time: 16 h
# Baseline: vehicle-treated
SMILES,GFP-positive cells [%]
CN(C/C=C/C#CC(C)(C)C)Cc1cccc2ccccc12,64.3
NCCCC[C@H](N[C@@H](CCc1ccccc1)C(=O)O)C(=O)N1CCC[C@H]1C(=O)O,94
CC[C@H]1OC(=O)[C@H](C)[C@@H](O[C@H]2C[C@@](C)(OC)[C@@H](O)[C@H](C)O2)[C@H](C)[C@@H](O[C@@H]2O[C@H](C)C[C@H](N(C)C)[C@H]2O)[C@](C)(O)C[C@@H](C)CN(C)[C@H](C)[C@@H](O)[C@]1(C)O,18.4

# Study 3
# Target: Replicase polyprotein 1ab, polymerase (rep, Severe acute respiratory syndrome coronavirus 2, UniProt P0DTD1)
# Observed: enzyme activity
# Action: inhibitor
# Concentration: 20 µM
Structure (SMILES),inhibition
C/C=C/C[C@@H](C)C(=O)[C@H]1C(=O)N[C@@H](C(C)C)C(=O)N(C)CC(=O)N(C)[C@@H](CC(C)C)C(=O)N[C@@H](C(C)C)C(=O)N(C)[C@@H](CC(C)C)C(=O)N[C@@H](C)C(=O)N[C@H](C)C(=O)N(C)[C@@H](CC(C)C)C(=O)N(C)[C@@H](CC(C)C)C(=O)N(C)[C@@H](C(C)C)C(=O)N1C,-1.56%
CC(=O)O[C@H]1C[C@@H]2CC[C@@H]3[C@H](CC[C@@]4(C)[C@H]3C[C@H](N3CC[N+](C)(C)CC3)[C@@H]4OC(C)=O)[C@@]2(C)C[C@@H]1N1CC[N+](C)(C)CC1,-1.44%
CC(C)NNC(=O)c1ccncc1,16.7%
CN(C)C/C=C/C(=O)Nc1cccc(C(=O)Nc2cccc(Nc3ncc(Cl)c(-c4c[nH]c5ccccc45)n3)c2)c1,2.14%
C[N@+]1(CC2CC2)CC[C@]23c4c5ccc(O)c4O[C@H]2C(=O)CC[C@@]3(O)[C@H]1C5,-16%
CCc1nc(-c2cccc(C)c2)c(-c2ccnc(NC(=O)c3ccccc3)c2)s1,-1.79%
N[C@H]1C(O)O[C@H](CO)[C@@H](O)[C@@H]1O (stereo partly drawn),7.15%
CC(C)(O)C(=O)Nc1ccc([N+](=O)[O-])c(C(F)(F)F)c1,-1.27%
C[C@@H]1C(=O)O[C@H]2C[C@@]34[C@H]5C[C@@H](C(C)(C)C)[C@]36[C@@H](OC(=O)[C@@H]6O)O[C@@]4(C(=O)O5)[C@]21O,-8.28%
COc1ccc(-c2coc3cc(O)ccc3c2=O)cc1,28%
Cc1ccnc2c1NC(=O)c1cccnc1N2C1CC1,-2.92%
Cn1c(=O)c2nc[nH]c2n(C)c1=O,19.8%
CN1CCC(c2c[nH]c3ccc(O)cc23)CC1,-2.74%
C[C@]12CCC(=O)C=C1CC[C@@H]1[C@@H]2CC[C@@]2(C)[C@H]1CC[C@]2(C)O,0.77%
C[C@@H]1CC[C@@]2(OC1)O[C@H]1C[C@H]3[C@@H]4CC=C5C[C@@H](O)CC[C@]5(C)[C@H]4CC[C@]3(C)[C@H]1[C@@H]2C,-5.58%
O=C(Oc1cc(S(=O)(=O)c2ccccc2)ccc1[N+](=O)[O-])c1ccc(Cl)cc1,-0.03%
N[C@@H](Cc1c[nH]c2ccc(O)cc12)C(=O)O,-5.5%
CC1=C(C)C(=O)C(C(CCCCCC(=O)O)c2ccccc2)=C(C)C1=O (stereo not drawn),-4.46%
CCCNC(=O)Nc1ccc(Oc2ncnc3cc(OC)c(OC)cc23)cc1Cl,-3.33%
CN(C(=O)Cc1ccccc1)[C@H](CN1CCCC1)c1ccccc1,4.18%
Clc1ccc(C(Cn2ccnc2)OCc2ccc(Sc3ccccc3)cc2)c(Cl)c1 (stereo not drawn),-6.4%
CN(C/C=C/C#CC(C)(C)C)Cc1cccc2ccccc12,-12.8%
O=C(Nc1ccccc1)Nc1ccc(-c2ccc(C(=O)[C@@H]3CCC[C@H]3C(=O)O)cc2)cc1,11.2%

# Study 4
# Target: Ras GTPase-activating protein-binding protein 1, full length (G3BP1, Homo sapiens, UniProt Q13283)
# Sequence of UniProt Q13283 (whole entry, looked up): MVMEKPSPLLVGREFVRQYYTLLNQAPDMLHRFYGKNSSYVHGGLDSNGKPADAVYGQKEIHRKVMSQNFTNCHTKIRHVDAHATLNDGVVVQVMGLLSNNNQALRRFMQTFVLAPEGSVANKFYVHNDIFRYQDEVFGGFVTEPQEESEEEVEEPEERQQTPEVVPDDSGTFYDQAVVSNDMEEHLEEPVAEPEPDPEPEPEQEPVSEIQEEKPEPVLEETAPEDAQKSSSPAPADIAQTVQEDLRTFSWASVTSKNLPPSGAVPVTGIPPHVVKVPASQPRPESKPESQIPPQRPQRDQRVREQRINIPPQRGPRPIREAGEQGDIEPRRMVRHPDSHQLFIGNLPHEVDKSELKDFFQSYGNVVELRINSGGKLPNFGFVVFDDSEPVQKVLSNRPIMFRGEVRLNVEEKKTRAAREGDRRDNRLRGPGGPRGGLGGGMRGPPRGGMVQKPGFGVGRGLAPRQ
# Method: RNA Bind-n-Seq
# Molecule type: RNA
# Sample: in vitro
# Concentration: 200 nM
# Notes: whole 134-nt RNA, ends assumed
# Added: 150 mM LiCl
# Baseline: input library
# Reading: higher = stronger binding
# Each molecule: 7-deaza-guanosine replaces G
# Constant ends, left off below: GGGAGUUCUACAGUCCGACGAUC … UGGAAUUCUCGGGUGUCAAGG
Strand,log2 enrichment
AGUCCUGUGCUACACAUCGUAUGUACCGAAUCGGGUUUUUGGGUUUGGGUUUUUGGGAAAGUAUUAUGUUACGCCGUUCGGAUCUGCACU,-0.773
UAACUUUAGAGGAGGAUCUGAUGGAUAUGGCAGUGGACGUGGAUUUGGGGAUGACUAUAAUGGGUAUGGAGGAGGACCUGGAGGUGGCAA,-0.025
AGUCCUGUGCUACACAUCGUAUGUACCGAAUCGGGUUUUUGGGUUUUUGGGUUUGGGAAAGUAUUAUGUUACGCCGUUCGGAUCUGCACU,-0.498
UCCUGUGCUACACAUCGUAUGUACCGAAUCGGGCCCCCCCGGCCCCCCCGGCCCCCCCGGAAAGUAUUAUGUUACGCCGUUCGGAUCUGC,0.5
UCAAGUCCUGUGCUACACAUCGUAUGUACCGAAUCGGGGCCGGGGCCGGGCCGGAAAGUAUUAUGUUACGCCGUUCGGAUCUGCACUUCC,0.359
CAAGUCCUGUGCUACACAUCGUAUGUACCGAAUCGGCCCCGGGCCCCGGCCCCGGAAAGUAUUAUGUUACGCCGUUCGGAUCUGCACUUC,-0.154
CACAGACAACACGCACCCACACAGACAAAAAGGGAAGGGGUUGGGAUGGGGACAGGGUGCACAGCAGGGCGGGGUAGGACCCCAGCCCCU,-0.424
CAAGUCCUGUGCUACACAUCGUAUGUACCGAAUCGGGAGGGUGGGUUUUUUUGGGAAAGUAUUAUGUUACGCCGUUCGGAUCUGCACUUC,0.0792

# Study 5
# Target: RNA binding protein fox-1 homolog 2, RRM domain, GST-SBP tag (RBFOX2, Homo sapiens, UniProt O43251-10, residues 100-194)
# Method: RNA Bind-n-Seq
# Molecule type: RNA
# Sample: in vitro
# Concentration: 365 nM
# Notes: natural RNA segment, single round, ends assumed
# Baseline: no-protein control
# Reading: higher = stronger binding
# Constant ends, left off below: GGGAGUUCUACAGUCCGACGAUC … UGGAAUUCUCGGGUGCCAA
# Target sequence (chain): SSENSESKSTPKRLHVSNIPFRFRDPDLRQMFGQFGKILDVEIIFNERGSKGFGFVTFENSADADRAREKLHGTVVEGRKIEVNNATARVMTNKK
Strand,RBNS enrichment (R)
AAUCUAGCCUAGCUGGCCUUAUUUGGGAAGCGUAACUGCUUUUAGCAUAUGGGAGUAUUUUUUCACAUUUUCUUUGUAUAAAAUUUGUAUUAAACUUAAAUAUCUUUUUU,0.491
CACUGGAAGUCAAAUUCACUUAAAAAAGAAAUUGUGUGGCUUCACCAAGAAGCAGAGUUCAACUUAUUUCAUAAUUGCCUACAUUUAUCACAGUCCUGAAUGUAGCGUGU,0.845
AAGGUAGCUCACCUAACAAAGCUCCUCCAUCUCAGCAUGCCAGACCCACUUUGAAAUCUCACAGAAUCUUGCUGGUAAUGGUGACUUUAGAACUAGUAGACCCUUUUUCC,1.3
CAAUCUGUUGUUGAGUUCCCCCUCUCUGCAUCAGUCUUCCCUGGAAAUGGAGGACCUGGUGCAGUACCUUUCCUCUGAGGCUUGGAUUCCCGUUCUUGGGUGUAAUGUUG,0.915
AAAACAUGUAAAAUAUUGAAGUGUCUAACAAAUGGCAUAAAGUGUCUUUAAUAAAGGUUCAUUUAUAAUACUAAGUGUGUGCGGCGGUCACUGCUCUUUUAUUCUGCUAU,0.347
UUGGAAAAAUAAUUUUGCAUUUUUUGAGCCUUUGAAAGUUGGAAAGUCCACUAACUGUUCAAAGAUAAGGAGCAGUGCCUAUUCUCAAGAGCAGCCAUGCCAUGUACUCC,0.655
UGGAAGAGUUGUCAUCACUAAAACUUCAGUACUGAGAGUAACAUGACUCAGUAGCCACAGAAGCUAUGAUUUGUAAAAUAUAUAAUUGAAUCAGAGUAAUCAUAAUGCAG,0.532
CAUCAUGGGUCCUGAUGGUUUCCCGUUUUCAUGGUAACAAAUUCGCACAGAGGUUUUGCUUUAUGCUGUAGAAUACCGACUUUCAUGAUGACAACUUGGUUUAUGCAUGA,2.72

# Mixed results
SMILES,target,assay,conditions,measurement,result
CC(=O)O/N=C1\C(=O)N(Cc2cc(Cl)ccc2Cl)c2ccc(Cl)cc21,"Replicase polyprotein 1ab, main protease (rep, Severe acute respiratory syndrome coronavirus 2, UniProt P0DTD1)","enzyme activity, inhibitor","20 µM, hit confirmation, added: DTT",inhibition,54.1%
